Measured values collected from several papers.
Lines come from different studies, so protocols differ. ± marks the error that the study gave.
Organism: Plasmodium falciparum

Cc1ccc(NCC(=O)Nc2ccc(F)c(Cl)c2)cc1S(=O)(=O)N1CCCCC1 — EC50 (parasite growth; 3D7; blood stage): 220 nM
COC(=O)c1[nH]c(C(=O)OC)c2c1-c1c[nH]c3ccc(Cl)c(c13)[C@]21C=Nc2ccc(Cl)cc21 — EC50 (parasite growth, SYBR Green; 3D7; 72 h, blood stage): 4800 nM
Cc1ccc(N(C)CC(=O)Nc2ccc(F)c(Cl)c2)cc1S(=O)(=O)N1CCOCC1 — EC50 (parasite growth; 3D7; blood stage): 290 nM
Cc1cc(N2CC[C@@](C#N)(C3(C)CC3)C2=O)cc(C(=O)NCc2cc(F)cc(-c3cnn(C)c3)c2)n1 — EC50 (asexual blood-stage growth, SYBR Green I; 3D7; 48 h): ~1.6 nM
CC(C)=CCC/C(C)=C/Cc1c(CCC(=O)c2ccc(O)cc2O)ccc(O)c1O — EC50 (parasite growth, PfLDH; 3D7 expressing yeast DHODH): 11600 nM
Cc1ccc(NCC(=O)N2CCNCC2)cc1S(=O)(=O)N1CCOCC1 — EC50 (parasite growth; 3D7; blood stage): > 50000 nM
CN1CCN(C(=O)c2ccc(-c3cc4nccc(-c5ccc6cnccc6c5)c4o3)cc2)CC1 — EC50 (parasite growth; 3D7; blood stage): 22 nM
COc1ccc(S(=O)(=O)NCc2c[nH]nc2-c2cccs2)cc1 — EC50 (parasite growth, ex vivo schizont maturation; Brazilian Western Amazon isolates): 617 nM
COC(=O)c1[nH]c(C(=O)OC)c2c1-c1c[nH]c3ccc(Cl)c(c13)C21CNc2ccc(Cl)cc21 (racemic) — EC50 (parasite growth, SYBR Green; 3D7; 72 h, blood stage): 4400 nM
O=C1C2=C(Nc3ccccc3SC2c2ccc(O)c(O)c2)c2ccccc21 (racemic) — EC50 (growth, [3H]hypoxanthine incorporation; 3D7): > 5000 nM
Cc1ccc(NC(C)(C)C(=O)Nc2ccc(F)c(Cl)c2)cc1S(=O)(=O)N1CC2CCC(C1)O2 — EC50 (parasite growth; 3D7; blood stage): 35 nM
COc1cc(C(=O)N2CCN(C)CC2)ccc1-c1cc2nccc(-c3ccc4ccncc4c3)c2o1 — EC50 (parasite growth; 3D7; blood stage): 890 nM
CC1CCN(Cc2cc(/C=C/C(=O)c3ccc(F)cc3)ccc2O)CC1 — EC50 (parasite growth; 3D7; 72 h, blood stage): 5970 nM
Cc1ccc(NCC(=O)Nc2ccc(F)c(Cl)c2)cc1S(=O)(=O)N1CC2CCC(C1)O2 — EC50 (parasite growth; 3D7; blood stage): 760 nM
Cc1cc(N2CC[C@@](C#N)(C3CC3)C2=O)cc(NC(=O)Cc2ccccc2)n1 — EC50 (asexual blood-stage growth, SYBR Green I; 3D7; 48 h): 48.7 nM
Cc1ccc(NCC(=O)Nc2ccc(F)cc2)cc1S(=O)(=O)N1CCOCC1 — EC50 (parasite growth; 3D7; blood stage): 420 nM
O=c1cc[s+]([O-])c2ccc(Cl)cc12 (racemic) — EC50 (parasite growth; 3D7; 72 h, blood stage): 107000 nM
Cc1ccc(CNC(=O)[C@H](CCCCNC(=O)OCc2ccccc2)NC(=O)[C@H](CC2CCCCC2)NC(=O)Cc2cccnc2)cc1 — EC50 (parasite growth; D10; 72 h, blood stage): 4220 nM
Cn1c(=O)c2cc(C(=O)NCCCN3CCCCCC3)sc2c2ccccc21 — EC50 (parasite growth; blood stage): 268 nM
CC[C@@H](/C=C/S(C)(=O)=O)NC(=O)[C@H](COC)NC(=O)[C@H](CCc1ccccc1)NC(=O)CN1CCOCC1 — EC50 (flow cytometry YOYO-1; W2 ring stage; 72 h no washout): 21 ± 5 nM
Cc1ccc(CNC(=O)[C@H](CCc2ccccc2)NC(=O)[C@@H](N)CCc2ccccc2)cc1 — EC50 (parasite growth; D10; 72 h, blood stage): 7760 nM
O=C1C2=C(Nc3ccccc3SC2C2CCCCC2)c2ccccc21 (racemic) — EC50 (growth, [3H]hypoxanthine incorporation; 3D7): 34 nM
CC(C)C[C@@H](/C=C/S(C)(=O)=O)NC(=O)[C@H](CC(C)C)NC(=O)[C@H](Cc1cccc2ccccc12)NC(=O)CN1CCOCC1 — EC50 (flow cytometry YOYO-1; W2 ring stage; 72 h no washout): 10 ± 2 nM
O=C1C(Cc2ccc(C(F)(F)F)cc2)=CS(=O)(=O)c2ccccc21 — EC50 (parasite growth; 3D7; 72 h, blood stage): 33900 nM
N#Cc1ccc(C2Sc3ccccc3NC3=C2C(=O)c2ccccc23)cc1 (racemic) — EC50 (growth, [3H]hypoxanthine incorporation; 3D7): 790 nM
O=c1cc[s+]([O-])c2ccccc12 (single isomer, unassigned; (+)) — EC50 (parasite growth; 3D7; 72 h, blood stage): 115000 nM
CNC(=O)c1c(F)cccc1Nc1nc(Nc2cc3c(cc2OC)CCN3C(=O)CN(C)C)nc2[nH]ccc12 — EC50 (parasite growth; D6; blood stage): 2510 nM
CC(C)C[C@@H](/C=C/S(C)(=O)=O)NC(=O)[C@H](CC(C)C)NC(=O)[C@H](Cc1ccc2ccccc2c1)NC(=O)CN1CCOCC1 — EC50 (flow cytometry YOYO-1; W2 ring stage; 72 h no washout): 90 ± 16 nM
Cc1ccc(NCC(=O)Nc2cccc(Cl)c2)cc1S(=O)(=O)N1CCOCC1 — EC50 (parasite growth; 3D7; blood stage): 190 nM
Cc1ccc(CNC(=O)[C@@H](NC(=O)[C@H](CCc2ccccc2)NC(=O)[C@H](CCc2ccccc2)N(C)Cc2cnccn2)C(C)C)cc1 — EC50 (parasite growth; D10; 72 h, blood stage): 104 nM
Cc1ccc(NCC(=O)Nc2cnccn2)cc1S(=O)(=O)N1CCOCC1 — EC50 (parasite growth; 3D7; blood stage): > 50000 nM
Cc1ccc(CNC(=O)[C@@H]2Cc3cccc(c3)Oc3cccc(c3)C[C@H](N)C(=O)N[C@@H](CCc3ccccc3)C(=O)N2)cc1 — EC50 (parasite growth; 1 h pulse, ring stage): 1870 nM

Repeated from above:
N#Cc1ccc(C2Sc3ccccc3NC3=C2C(=O)c2ccccc23)cc1 (racemic) — EC50 (growth, [3H]hypoxanthine incorporation; 3D7): 790 nM
O=c1cc[s+]([O-])c2ccccc12 (single isomer, unassigned; (+)) — EC50 (parasite growth; 3D7; 72 h, blood stage): 115000 nM
CNC(=O)c1c(F)cccc1Nc1nc(Nc2cc3c(cc2OC)CCN3C(=O)CN(C)C)nc2[nH]ccc12 — EC50 (parasite growth; D6; blood stage): 2510 nM
CC(C)C[C@@H](/C=C/S(C)(=O)=O)NC(=O)[C@H](CC(C)C)NC(=O)[C@H](Cc1ccc2ccccc2c1)NC(=O)CN1CCOCC1 — EC50 (flow cytometry YOYO-1; W2 ring stage; 72 h no washout): 90 ± 16 nM
